Experimental data collected from several papers.
Numbered parts are unrelated; each lists some results of a single study. Substitutions count along the parent as printed.

Set 1 — target: CCND3, cyclin fold, Cln2 fusion (human); technique: yeast growth competition, sequencing; matrix: yeast; notes: weak parent motif; relative to: not given; direction: higher = stronger binding; measurement: normalised enrichment score
Starting sequence: MICAL3 docking peptide (human); LQLRRQLSFSEDS; partner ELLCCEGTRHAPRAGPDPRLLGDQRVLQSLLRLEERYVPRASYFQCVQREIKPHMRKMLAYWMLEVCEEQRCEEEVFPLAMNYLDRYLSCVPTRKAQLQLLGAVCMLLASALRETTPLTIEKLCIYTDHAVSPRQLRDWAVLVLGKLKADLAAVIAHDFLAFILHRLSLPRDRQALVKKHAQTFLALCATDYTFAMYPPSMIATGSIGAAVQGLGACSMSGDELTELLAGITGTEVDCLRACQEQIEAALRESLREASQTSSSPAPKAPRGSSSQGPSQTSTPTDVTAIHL
R4F: 0.0708
F9Q: 0.131
D12W: 0.189
L7F: -0.274
Q6M: 0.161
F9C: 0.313
Q2I: -0.183
S8E: -0.238
R5S: -0.0663
Q2N: 0.272
S8M: -0.0746
L7M: 0.408
R5M: -0.0483
Q2S: 0.299
E11C: 0.154
L3W: 0.156
D12H: -0.226
R5W: 0.115

Set 2 — target: CREB3L2, bZIP domain (human); technique: DHFR protein complementation; matrix: yeast; relative to: wild-type JUN-FOS pair; direction: higher = stronger binding; measurement: binding fitness
Notes: single substitutions, most at no-binding floor
Starting sequence: JUN, bZIP domain (human); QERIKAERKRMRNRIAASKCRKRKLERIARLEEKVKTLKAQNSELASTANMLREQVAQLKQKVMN; partner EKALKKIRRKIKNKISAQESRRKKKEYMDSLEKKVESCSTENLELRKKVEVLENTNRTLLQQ
E54N: -1.63 natural log
Q55C: -1.37 natural log
K36L: -1.54 natural log
E44M: -1.52 natural log
S47M: -1.41 natural log
T37G: -1.33 natural log
K36P: -1.54 natural log
T48R: -1.15 natural log
E54I: -1.51 natural log
L31Q: -1.28 natural log
T37W: -1.47 natural log
T48K: -1.29 natural log
A29L: -1.46 natural log
S43G: -1.37 natural log
L45N: -1.54 natural log
E33H: -1.39 natural log
I28F: -1.24 natural log
R30W: -1.37 natural log
E32C: -1.41 natural log
Q41T: -1.54 natural log
A29P: -1.52 natural log
A29D: -1.47 natural log
S43N: -1.4 natural log
V56E: -1.52 natural log
A40D: -1.44 natural log

Set 3 — target: UBE2J1 UBC core domain (UniProt Q9Y385); technique: yeast two-hybrid; matrix: yeast; notes: mostly zero background; relative to: not given; direction: higher = stronger interaction; measurement: lacZ reporter activity
B1: TRIM28 RING domain (UniProt Q13263); chain GAEALELLEHCGVCRERLRPEREPRLLPCLHSACSACLGPAAPAAANSSGDGGAAGDGTVVDCPVCKQQCFSKDIVE
B2: TRIM34 RING domain (UniProt Q9BYJ4); chain ILLNVQEEVTCPICLELLTEPLSLDCGHSLCRACITVSNKEAVTSMGGKSSCPVCGISYSFEHLQA
B3: PJA2 RING domain (UniProt O43164); chain DHTAIGQEQCCPICCSEYIKDDIATELPCHHFFHKPCVSIWLQKSGTCPVCRRHFPPAVIEA
B4: UBE4B RING domain (UniProt O95155); chain KNARAEIDYSDAPDEFRDPLMDTLMTDPVRLPSGTIMDRSIILRHLLNSPTDPFNRQTLTESMLEPVPELKEQIQAWMREKQNSDH
B5: RNF17 RING domain (UniProt Q9BXT8); chain SQPWGAAEIQCTRCGRRVSRSSGHHCELQCGHAFCELCLLMTEECTTIICPDCEVATAVNTRQR
B6: RNF115 RING domain (UniProt Q9Y4L5); chain TQEQVDMGLECPVCKEDYTVEEEVRQLPCNHFFHSSCIVPWLELHDTCPVCRKSLNGEDSTR
B7: MARCHF2 RING domain (UniProt Q9P0N8); chain RLLSTVIRALDTPSDGPFCRICHEGANGECLLSPCGCTGTLGAVHKSCLEKWLSSSNTSYCELCHTEFAVEKRPRPLTEWL
B8: MDM2 RING domain (UniProt Q00987); chain TQDKEESVESSLPLNAIEPCVICQGRPKNGCIVHGKTGHLMACFTCAKKLKKRNKPCPVCRQPIQMIVLTYFP
B9: RNF11 RING domain (UniProt Q9Y3C5); chain RDGSEKKIRECVICMMDFVYGDPIRFLPCMHIYHLDCIDDWLMRSFTCPSCMEPVDAALLSS
Construct (chain): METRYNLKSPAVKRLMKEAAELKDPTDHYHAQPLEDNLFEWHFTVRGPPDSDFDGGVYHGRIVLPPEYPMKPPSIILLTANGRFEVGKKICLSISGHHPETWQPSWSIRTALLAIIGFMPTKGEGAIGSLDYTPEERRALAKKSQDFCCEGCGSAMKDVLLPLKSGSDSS
B1 (TRIM28 RING domain): 0
B2 (TRIM34 RING domain): 0
B3 (PJA2 RING domain): 0
B4 (UBE4B RING domain): 0
PLRRLQEEKLCKICMDRHIAVVFIPCGHLVTCKQCAEAVDRCPMCSAVIDFKQRVF (BIRC8 RING domain (UniProt Q96P09)): 0
B5 (RNF17 RING domain): 0
AAQLLEEKLTCAICLGLYQDPVTLPCGHNFCGACIRDWWDRCGKACPECREPFPDGAELR (TRIM65 RING domain (UniProt Q6PJ69)): 0
B6 (RNF115 RING domain): 0
B7 (MARCHF2 RING domain): 0
FLSKVEETFQCICCQELVFRPITTVCQHNVCKDCLDRSFRAQVFSCPACRYDLGRSYAMQ (UHRF1 RING domain (UniProt Q96T88)): 0
VPADASPDSKCPICLDRFDNVSYLDRCLHKFCFRCVQEWSKNKAECPLCKQPFDSIFHSV (TOPORS RING domain (UniProt Q9NS56)): 0
B8 (MDM2 RING domain): 0
B9 (RNF11 RING domain): 0

Set 4 — technique: RNA Bind-n-Seq; form: RNA; matrix: in vitro; concentration: not given; notes: RNA with constant flanks, ends assumed; relative to: input RNA pool; direction: higher = stronger binding; measurement: bound/input enrichment
Target: RING finger protein unkempt homolog, zinc fingers 1-6, GST-SBP tag (UNK, Homo sapiens, UniProt Q9C0B0, residues 30-357)
Construct (chain): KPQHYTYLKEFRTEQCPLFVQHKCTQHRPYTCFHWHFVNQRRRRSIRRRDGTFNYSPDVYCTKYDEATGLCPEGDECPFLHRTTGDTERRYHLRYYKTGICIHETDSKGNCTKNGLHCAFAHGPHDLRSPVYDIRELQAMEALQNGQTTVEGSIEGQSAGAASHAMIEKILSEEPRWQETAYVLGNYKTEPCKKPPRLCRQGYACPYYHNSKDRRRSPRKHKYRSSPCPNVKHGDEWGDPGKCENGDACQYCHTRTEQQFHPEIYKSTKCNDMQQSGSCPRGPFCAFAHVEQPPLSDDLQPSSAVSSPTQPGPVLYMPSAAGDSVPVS
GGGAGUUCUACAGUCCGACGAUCGAGAACUUGCAUGAUGUUGCCUACAAGAAUGCCUUGGCUAAUCCUUUGUACUGUCCUGACUACCGGAUGGGGAAGAUAACAUCAGAGGAAUUACAUUACUUUGUUCAGAACCACUUCACACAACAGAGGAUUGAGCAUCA: 0.128 ratio
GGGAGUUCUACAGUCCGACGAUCGAGGAAGAGAAUGUUGUUUUAAAGUUCUCUGAACAGGGGGGAACCCCACAGAAUGUGGCCACCCGCAGCUCCCUCACAGCACAUCUCAGAAGCCUCUCCAAAGGAGAUUCCCCUGUGACUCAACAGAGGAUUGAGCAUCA: 0.161 ratio
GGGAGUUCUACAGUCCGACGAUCACAAAAAUCAAGAAAAUGUUUCUCACCUCUCAGUUUCUUCUGCUUCACCAACAUCGUCCGCCGCAUCAGCUGCAGGAAGUGUAACAAGCUCUAGUCUUCAGAAAUCUCCUACGCUGCUCACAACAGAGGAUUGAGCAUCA: 0.299 ratio
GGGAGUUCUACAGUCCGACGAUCCUCCUCUACAGAGCCACAAUGGCUCUGACGCUUGGUGGCACAGCCUAUGCCAUCUAUCUGUCCGCUAUGGCUGCAUUUCCCAAGAAGCAGAACUAAUGUCGUCAUCCCAGUCUUCACGUGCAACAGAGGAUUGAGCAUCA: 0.204 ratio
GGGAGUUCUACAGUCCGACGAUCAACGUGGAGUUGAGUUCCUUGGCCCGGCUUCCCAGCUUGAAUAAACUCCGGAAGUUGGAACUCCGUGACAAUAUAAUUUCUGGAGGCUUGGAAGUCCUGGCAGAGAAAUGUCCAAAUCUUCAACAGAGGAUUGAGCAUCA: 0.0638 ratio
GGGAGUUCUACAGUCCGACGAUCUUUGUUUUGUUUGGGGGCCUUUUUUUUUUCCCUAGAAGAUAUGGAGAGCCUUCUUGUCCAACCCGAUUGUUCACCAUCAGCCUGGAACUCUCACUGAACCACCACAGAAAUCGUGGCGAUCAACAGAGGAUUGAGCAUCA: 0.282 ratio
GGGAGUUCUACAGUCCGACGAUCACAUUUAUGUCGCCAGGCUUUCCAGUCAAUAACAGCAGCAGUGAUAAUGCUCAGAACUUCCGUUUUAAAACAAACUCUGGAUUUGCUGCUGCCUCUUCUGGAAGCCCUGCUGGUUUUGGGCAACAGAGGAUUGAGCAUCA: 0.0895 ratio
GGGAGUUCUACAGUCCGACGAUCAAGCUGGCUGUUCAGAUUGGCAAAGCAGGUCUGCUGAUGUCUGCCAUCACAGUUAUCAUCCCCGUGUUGUAUUUUGUGAUCGAUACCUUCUGGGUUCAGAAAAGACCAUGGCUUGCAGAGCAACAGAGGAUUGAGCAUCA: 0.118 ratio
